Experimental data from different studies.
Every numbered part comes from another study and shows a few of its results, in no order.

Set 1
Organism: Sarcocystis neurona
Read-out: parasite growth
Tested at: 10 µM
Time: 96 h
Setting: first screen
Relative to: untreated
Measurement: log2 fold change
CC1Cc2ccccc2N1NC(=O)c1ccc(Cl)c(S(N)(=O)=O)c1 (stereo not shown): 0.25
CS(=O)(=O)OCCCCOS(C)(=O)=O: 0.35
C#C[C@]1(O)CC[C@H]2[C@@H]3CCC4=Cc5oncc5C[C@]4(C)[C@H]3CC[C@@]21C: -0.15
CC(C)C[C@H](NC(=O)[C@@H](O)[C@H](N)Cc1ccccc1)C(=O)O: -0.17
Cc1cccc(Nc2ccccc2C(=O)O)c1C: 0.0556

Set 2
Compound: CC(C)n1cnc(-c2ccc(F)cc2)c1-c1ncc(C(=O)Nc2ccc(N3CCN(C)CC3)cc2)[nH]1
Method: phase 2a trial
Host: idiopathic pulmonary fibrosis patients
Measurement: patients with hypophosphataemia
60 mg once daily, grade 5 emergent event: 0%
30 mg once daily, grade 2 emergent event: 0%
all arms pooled, grade 5 emergent event: 0%

Set 3
Target: Alpha-2A adrenergic receptor (ADRA2A, Homo sapiens, UniProt P08913)
Sequence of UniProt P08913 (whole entry, looked up): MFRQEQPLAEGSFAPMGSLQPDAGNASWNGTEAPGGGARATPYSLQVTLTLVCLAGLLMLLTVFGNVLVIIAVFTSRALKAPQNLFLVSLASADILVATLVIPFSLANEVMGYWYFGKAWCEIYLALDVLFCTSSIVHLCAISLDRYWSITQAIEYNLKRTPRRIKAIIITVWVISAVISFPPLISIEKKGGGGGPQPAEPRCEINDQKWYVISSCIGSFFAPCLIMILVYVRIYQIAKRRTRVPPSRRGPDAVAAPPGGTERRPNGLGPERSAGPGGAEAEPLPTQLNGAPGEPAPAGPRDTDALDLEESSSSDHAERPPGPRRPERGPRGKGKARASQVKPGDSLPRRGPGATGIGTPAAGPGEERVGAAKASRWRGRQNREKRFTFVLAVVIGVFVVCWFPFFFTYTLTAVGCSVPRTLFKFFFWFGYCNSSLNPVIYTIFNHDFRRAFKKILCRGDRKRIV
Read-out: ligand displacement
Tested at: 10 µM
Measurement: inhibition
COc1cc(C(=O)O)ncc1C#Cc1ccccc1NS(=O)(=O)c1cccc2c(N(C)C)ccnc12: 44.4%
CCOc1ccc(S(=O)(=O)Nc2ccc(Cl)cc2C#Cc2cnc(C(=O)O)cc2OC)c2ncccc12: 26%
Cc1ccccc1Oc1cc(-n2c(=O)cc(C(F)(F)F)[nH]c2=O)c2ccccc2c1Cl: -15.8%
CN(C)C(=O)c1sc2nc(N3CCC(S(C)(=O)=O)CC3)cc(C(F)(F)F)c2c1N: 13%
Nc1cnc(N2CCc3cc(S(=O)(=O)Nc4c(F)cc(Cl)cc4F)cc(N4CCCC4=O)c32)nc1: -10.1%
CS(=O)(=O)N1CCCC(NC(=O)[C@H](CCC2CCCCC2)NC(=O)c2ccc(CNC(=O)c3cnc4ccccn34)cc2)C1 (stereo partly shown): 7.22%
O=C1NC(c2ccccn2)Sc2ccccc21 (stereo not shown): 12.7%
O=C(NCCCC1CCCCC1)c1ccc(CNC(=O)c2cnn(-c3ccccc3)c2C(F)(F)F)cc1: -2.46%
CC(=O)Nc1ncc(CN2CCC[C@H](Cc3cc(C)nc(C)c3)C2)s1: 8.68%
Cc1cc(Nc2nccc(C)n2)cc(-c2cnc([C@@]3(O)CC[C@H](C(=O)O)C(C)(C)C3)s2)c1: -2.14%
CC(=O)N1CCC(c2ccc(C(=O)NC3=NCCN3)cc2C(F)(F)F)CC1: 4.92%
CO[C@H]1CC[C@H](CNc2ccc(S(=O)(=O)NC(=O)c3ccc(N4CCN(CC5=C(c6ccc(Cl)cc6)CC(C)(C)CC5)CC4)cc3Oc3cnc4[nH]ccc4c3)cc2[N+](=O)[O-])CC1: 12.5%
c1ccc(N2CCN(Cc3nc4ccccc4[nH]3)CC2)nc1: 36%
O=c1nc(-c2ccccn2)sc2ccccc12: 0.132%

Set 4
Host: human
Medium: microsomes or S9
Tested at: 2 µM
Time: 0.5 h
Measurement: remaining compound
CC(c1ccccc1Cl)N1CCN(Cc2cc[nH]n2)CC1 (stereo not shown): 64.6%
CCn1nccc1-c1cc(C(=O)O)c2ccc(C)c(C)c2n1: 54.6%
Cc1nn(-c2ccccn2)c2c1-c1oncc1CC2: 3.08%
Cc1cnn(C2CCN(C(=O)c3ccc(-c4cc[nH]n4)s3)C2)c1 (stereo not shown): 64.4%
Cc1cc(S(=O)(=O)Nc2c[nH]c(=O)c(C)c2)sc1Cl: 67.5%
Cc1cc2nnc(SC3CC(C)OC3=O)n2c(C)n1 (stereo not shown): 77%
